Measured values of several laboratories.
A part holds a random share of what one study measured. Several values in a cell are separate wells, animals, samples, runs or records. Changes are numbered by the printed parent chain.

Set 1
Target: HLA class I histocompatibility antigen, A alpha chain, allele A*80:01 (Homo sapiens, UniProt P04439)
Read-out: peptide-MHC binding
Form: peptide
Concentration: concentration not given
Under binding, `HWMDATFNI` is recorded as “inactive”.
For `PLFPGITRV`, binding read “inactive”.
`YTNYPFLFF`: binding “inactive”.

Set 2
Target: Ras GTPase-activating protein-binding protein 1, RRM domain (G3BP1, Homo sapiens, UniProt Q13283)
Chain of UniProt Q13283 (whole entry, looked up): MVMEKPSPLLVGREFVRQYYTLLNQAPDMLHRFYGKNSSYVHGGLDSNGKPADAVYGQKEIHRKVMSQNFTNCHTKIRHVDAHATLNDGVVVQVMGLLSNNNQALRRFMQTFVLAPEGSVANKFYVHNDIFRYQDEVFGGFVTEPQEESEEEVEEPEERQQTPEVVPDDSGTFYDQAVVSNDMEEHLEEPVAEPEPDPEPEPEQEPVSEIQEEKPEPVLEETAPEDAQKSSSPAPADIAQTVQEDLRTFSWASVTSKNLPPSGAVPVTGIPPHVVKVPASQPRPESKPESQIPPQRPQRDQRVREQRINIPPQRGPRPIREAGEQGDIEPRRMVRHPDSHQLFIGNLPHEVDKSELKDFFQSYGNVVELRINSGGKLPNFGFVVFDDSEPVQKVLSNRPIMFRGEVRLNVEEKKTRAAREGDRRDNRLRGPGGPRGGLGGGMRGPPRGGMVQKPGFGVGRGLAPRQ
Method: RNA Bind-n-Seq
Form: RNA
Matrix: in vitro
Concentration: 1 µM
Notes: whole 134-nt RNA, ends assumed
Together with: 150 mM KCl
Baseline: input library
Direction: higher = stronger binding
All sequences stand within: GGGAGUUCUACAGUCCGACGAUC … UGGAAUUCUCGGGUGUCAAGG
With `UGGCCCUGGUGGCAUGCGGGGAGGAAGAGGUGGCCUCAUGGAUCGUGGUGGUCCCGGUGGAAUGUUCAGAGGUGGCCGUGGUGGCGACAG` the log2 enrichment was 1.58.
`AAGUCCUGUGCUACACAUCGUAUGUACCGAAUCAAACCCAAAUUUAAAUUUUUAAAAAAGUAUUAUGUUACGCCGUUCGGAUCUGCACUU` has a log2 enrichment of -0.547.
`CAAGUCCUGUGCUACACAUCGUAUGUACCGAAUCGGAAAGGGGAAAGGGGAAAGGAAAGUAUUAUGUUACGCCGUUCGGAUCUGCACUUC` has a log2 enrichment of -0.0393.
With `CUGUGCUACACAUCGUAUGUACCGAAUCGGGGCCCCCCCGGGCCCCCCCGGGCCCCCCCGGGAAAGUAUUAUGUUACGCCGUUCGGAUCU` the log2 enrichment was -0.61.
`AGUCCUGUGCUACACAUCGUAUGUACCGAAUCAAACCCAAAUUUUUUUAAAUUUAAAAAAGUAUUAUGUUACGCCGUUCGGAUCUGCACU` has a log2 enrichment of -0.812.
`GCAGGAAGUAAAAACAAAUGGAAAUGCUUCGGAUAGUGGCAGGGGUGGGGGUAGCUAAGGAAAGGGUGGGAUGGGAGUGGGUAAAGAGUU` gave a log2 enrichment of 0.775.
With `UCAAGUCCUGUGCUACACAUCGUAUGUACCGAAUCGGGUUUGGUUUGGUUUGGGAAAGUAUUAUGUUACGCCGUUCGGAUCUGCACUUCC` the log2 enrichment was -0.323.
`CCUGUGCUACACAUCGUAUGUACCGAAUCGGGGUUUUUUGGGUUUUUUGGGGUUUUUUGGAAAGUAUUAUGUUACGCCGUUCGGAUCUGC` gave a log2 enrichment of -0.267.

Set 3
Target: Histone acetyltransferase KAT6A, both winged helices, GST fusion (KAT6A, Homo sapiens, UniProt Q92794, residues 1-181)
Method: protein binding microarray
Form: double-stranded DNA, one strand shown
Matrix: in vitro
Concentration: not given
Notes: 8-mer, flanks averaged, mean of 2 arrays, mostly near background
Baseline: not given
Direction: higher = stronger binding
Construct (chain): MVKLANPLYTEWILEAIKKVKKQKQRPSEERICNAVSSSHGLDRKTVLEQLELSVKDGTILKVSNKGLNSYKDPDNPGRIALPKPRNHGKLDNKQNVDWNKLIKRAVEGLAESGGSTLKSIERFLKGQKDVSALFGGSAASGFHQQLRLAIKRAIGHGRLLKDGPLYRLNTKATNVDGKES
`AGTTAATC` has an E-score of -0.103.
`GGTGAACC` has an E-score of 0.121.
For `ATATTCGA`, the E-score was 0.0264.
`AATAGACG` has an E-score of 0.0382.
With `GGTGCGCA` the E-score was 0.226.
`CCTCAGGA` has an E-score of -0.202.
`ATTAACTC` gave an E-score of -0.0851.
The E-score of `CCACCTCA` is reported as -0.268.

Set 4
Target: Interferon regulatory factor 5, full length, phosphomimetic (IRF5, Homo sapiens, UniProt Q13568-2, residues 1-514, S451D/S453D/S456D/S462D)
Method: protein-binding microarray
Form: double-stranded DNA, one strand shown
Matrix: in vitro
Concentration: 940 nM top
Notes: 60-bp whole probe
Together with: salmon DNA 0.4 mg/ml
Baseline: random background probes
Direction: higher = stronger binding
All sequences stand within: GCCTAGCAC … GTCTTGATTCGCTTGACGCTGCTG
Under “fitted relative affinity”, `TTAGATATCGGGACTGGATCAGTGCTA` is recorded as 0.17 z-score.
For `TTAGAACTGGGGCCTGGATTAGTGCTA`, “fitted relative affinity” read -0.46 z-score.
For `GACTATATCGGGACTGGAGACGTGCTA`, “fitted relative affinity” read -0.194 z-score.
`TTAGAACTGAGACTGGAATAGTGCTAG` — result for “fitted relative affinity”: -0.0961 z-score.
For `TCAAGACTCATAATGGCTAGGTGCTAG`, “fitted relative affinity” read -0.251 z-score.
`TTAGTACTGGGTCTCGGTTAGTGCTAG`: “fitted relative affinity” 1.42 z-score.
`TCAGTTCTGCTTCTTAGACTGTGCTAG`: “fitted relative affinity” 0.635 z-score.
Under “fitted relative affinity”, `TTAGGACTGGGCCTGGGTTAGTGCTAG` is recorded as -0.647 z-score.

Set 5
Target: CCNE2, cyclin fold, Cln2 fusion (human)
Method: yeast growth competition, sequencing
Matrix: yeast
Notes: strong parent motif
Baseline: not given
Direction: higher = stronger binding
Starting sequence: viral docking peptide; KGVKRKLFAEDSS; partner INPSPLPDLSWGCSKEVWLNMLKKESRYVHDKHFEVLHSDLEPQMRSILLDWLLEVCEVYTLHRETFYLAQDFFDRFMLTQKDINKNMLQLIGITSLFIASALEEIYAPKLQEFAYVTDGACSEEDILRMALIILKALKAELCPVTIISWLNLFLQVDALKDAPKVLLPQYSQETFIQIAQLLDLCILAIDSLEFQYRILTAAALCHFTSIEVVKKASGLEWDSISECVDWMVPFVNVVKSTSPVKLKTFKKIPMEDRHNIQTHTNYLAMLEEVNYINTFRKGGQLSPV
`V3C`: “normalised enrichment score” 4.58.
`E10M` — result for “normalised enrichment score”: 5.68.
Under “normalised enrichment score”, `R5H` is recorded as 0.38.
For `S12Q`, “normalised enrichment score” read 6.27.
Under “normalised enrichment score”, `A9E` is recorded as 6.71.
`F8E` — result for “normalised enrichment score”: 0.311.
`L7D`: “normalised enrichment score” 0.156.
For `D11C`, “normalised enrichment score” read 6.06.
`L7N` — result for “normalised enrichment score”: 0.349.
For `S12P`, “normalised enrichment score” read 7.01.
`K4V`: “normalised enrichment score” 6.82.
`S12I`: “normalised enrichment score” 6.95.
`V3M` — result for “normalised enrichment score”: 1.07.
Under “normalised enrichment score”, `V3Q` is recorded as 0.18.
Under “normalised enrichment score”, `G2R` is recorded as 6.34.
`L7I`: “normalised enrichment score” 2.03.
For `G2Y`, “normalised enrichment score” read 5.19.
`D11I`: “normalised enrichment score” 5.65.
`E10I` — result for “normalised enrichment score”: 5.
For `R5K`, “normalised enrichment score” read 2.62.
`F8K`: “normalised enrichment score” 0.569.
For `D11Y`, “normalised enrichment score” read 6.8.
Under “normalised enrichment score”, `A9K` is recorded as 5.52.
Under “normalised enrichment score”, `K6Q` is recorded as 6.84.
`K1A` — result for “normalised enrichment score”: 6.17.

Further values, each from its own experiment
`c1ccc(Oc2ccc(Nc3c4c(nc5ccccc35)CCC4)cc2)cc1` gave an inhibition of 81% and 83% and 78% and 87% and 88% (Leishmania donovani; parasite growth; DD8 amphotericin B-resistant, promastigotes; 6.66 µM).

Some of these lines once more (set 1):
Under binding, `HWMDATFNI` is recorded as “inactive”.
For `PLFPGITRV`, binding read “inactive”.
`YTNYPFLFF`: binding “inactive”.
